Published values from different studies.
“And” joins repeats or separate records; there may be more than shown. ± gives the spread as reported.
PDGFRB: Platelet-derived growth factor receptor beta (PDGFRB, Homo sapiens, UniProt P09619)
Chain of UniProt P09619 (whole entry, looked up): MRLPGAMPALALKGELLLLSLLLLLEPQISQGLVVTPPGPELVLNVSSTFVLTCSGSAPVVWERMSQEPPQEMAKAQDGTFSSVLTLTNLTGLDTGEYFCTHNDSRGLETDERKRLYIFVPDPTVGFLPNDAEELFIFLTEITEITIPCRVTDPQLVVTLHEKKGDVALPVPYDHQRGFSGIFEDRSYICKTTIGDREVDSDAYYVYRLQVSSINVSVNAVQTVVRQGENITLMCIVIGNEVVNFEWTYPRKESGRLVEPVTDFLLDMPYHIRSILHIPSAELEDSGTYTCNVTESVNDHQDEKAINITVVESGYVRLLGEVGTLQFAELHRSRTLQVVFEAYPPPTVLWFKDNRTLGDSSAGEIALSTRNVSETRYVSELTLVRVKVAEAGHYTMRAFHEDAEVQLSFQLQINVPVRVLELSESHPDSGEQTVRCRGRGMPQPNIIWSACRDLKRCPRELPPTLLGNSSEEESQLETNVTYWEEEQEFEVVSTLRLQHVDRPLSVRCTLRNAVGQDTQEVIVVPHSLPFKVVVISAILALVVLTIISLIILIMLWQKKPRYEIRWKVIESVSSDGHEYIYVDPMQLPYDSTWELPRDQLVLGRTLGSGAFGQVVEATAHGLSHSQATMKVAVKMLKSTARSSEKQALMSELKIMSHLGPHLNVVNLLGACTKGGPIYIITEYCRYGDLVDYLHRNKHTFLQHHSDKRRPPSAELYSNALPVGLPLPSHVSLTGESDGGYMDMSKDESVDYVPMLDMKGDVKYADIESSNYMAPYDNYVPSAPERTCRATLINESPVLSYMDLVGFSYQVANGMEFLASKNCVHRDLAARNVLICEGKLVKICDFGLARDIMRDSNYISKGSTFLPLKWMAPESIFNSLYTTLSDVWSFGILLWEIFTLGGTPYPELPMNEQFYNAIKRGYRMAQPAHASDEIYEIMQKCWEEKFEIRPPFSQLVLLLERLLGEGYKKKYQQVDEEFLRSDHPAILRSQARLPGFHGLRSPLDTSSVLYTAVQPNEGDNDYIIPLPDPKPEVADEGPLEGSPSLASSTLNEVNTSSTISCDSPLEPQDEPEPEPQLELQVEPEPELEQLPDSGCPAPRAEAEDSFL
STK25: Serine/threonine-protein kinase 25 (STK25, Homo sapiens, UniProt O00506)
Chain of UniProt O00506 (whole entry, looked up): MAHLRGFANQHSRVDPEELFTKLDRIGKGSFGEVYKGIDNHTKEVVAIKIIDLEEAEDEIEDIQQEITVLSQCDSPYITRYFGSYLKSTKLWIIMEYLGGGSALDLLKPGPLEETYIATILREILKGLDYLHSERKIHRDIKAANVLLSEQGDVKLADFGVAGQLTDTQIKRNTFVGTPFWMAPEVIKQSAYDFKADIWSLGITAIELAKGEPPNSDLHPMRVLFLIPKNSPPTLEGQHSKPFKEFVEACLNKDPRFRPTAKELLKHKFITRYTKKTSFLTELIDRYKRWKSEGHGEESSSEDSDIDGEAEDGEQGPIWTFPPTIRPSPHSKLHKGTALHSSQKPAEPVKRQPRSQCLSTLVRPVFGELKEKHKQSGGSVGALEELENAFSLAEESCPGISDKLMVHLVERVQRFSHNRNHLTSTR
KDM4A: Lysine-specific demethylase 4A (KDM4A, Homo sapiens, UniProt O75164)
Chain of UniProt O75164 (whole entry, looked up): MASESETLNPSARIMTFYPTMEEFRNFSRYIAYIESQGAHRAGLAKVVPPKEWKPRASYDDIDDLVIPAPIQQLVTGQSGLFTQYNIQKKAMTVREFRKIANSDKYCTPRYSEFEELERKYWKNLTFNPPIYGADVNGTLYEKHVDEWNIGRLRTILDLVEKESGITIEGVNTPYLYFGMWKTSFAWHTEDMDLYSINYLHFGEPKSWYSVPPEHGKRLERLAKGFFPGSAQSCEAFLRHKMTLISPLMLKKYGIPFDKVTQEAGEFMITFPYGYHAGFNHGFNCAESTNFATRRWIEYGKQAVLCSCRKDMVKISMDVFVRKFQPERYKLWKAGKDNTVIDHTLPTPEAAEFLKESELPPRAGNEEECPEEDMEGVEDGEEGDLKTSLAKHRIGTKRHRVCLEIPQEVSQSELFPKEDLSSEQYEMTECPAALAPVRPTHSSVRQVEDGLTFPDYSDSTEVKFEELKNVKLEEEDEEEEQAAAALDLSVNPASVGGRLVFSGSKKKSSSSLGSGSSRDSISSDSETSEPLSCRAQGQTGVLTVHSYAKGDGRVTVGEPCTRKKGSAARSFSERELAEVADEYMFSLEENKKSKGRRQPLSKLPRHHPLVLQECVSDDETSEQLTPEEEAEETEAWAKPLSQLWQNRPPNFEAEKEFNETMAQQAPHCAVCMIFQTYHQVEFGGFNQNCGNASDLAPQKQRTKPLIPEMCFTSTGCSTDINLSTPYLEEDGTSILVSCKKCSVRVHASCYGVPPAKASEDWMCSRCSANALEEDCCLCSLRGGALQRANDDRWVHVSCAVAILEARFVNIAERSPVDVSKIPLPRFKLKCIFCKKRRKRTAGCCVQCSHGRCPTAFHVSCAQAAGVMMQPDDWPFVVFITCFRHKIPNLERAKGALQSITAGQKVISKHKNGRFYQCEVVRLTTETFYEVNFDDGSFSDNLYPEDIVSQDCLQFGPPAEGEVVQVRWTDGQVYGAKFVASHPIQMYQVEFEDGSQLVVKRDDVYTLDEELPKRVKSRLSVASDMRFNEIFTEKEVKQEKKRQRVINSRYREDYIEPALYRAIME
UCHL1: Ubiquitin carboxyl-terminal hydrolase isozyme L1 (UCHL1, Homo sapiens, UniProt P09936)
Chain of UniProt P09936 (whole entry, looked up): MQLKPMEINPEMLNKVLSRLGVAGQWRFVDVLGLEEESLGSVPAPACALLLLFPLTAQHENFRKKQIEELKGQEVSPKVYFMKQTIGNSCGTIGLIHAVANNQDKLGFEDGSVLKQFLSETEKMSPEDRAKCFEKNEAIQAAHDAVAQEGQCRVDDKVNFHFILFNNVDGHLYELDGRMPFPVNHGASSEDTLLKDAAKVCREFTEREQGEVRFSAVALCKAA
Chain of UniProt P97821 (whole entry, looked up): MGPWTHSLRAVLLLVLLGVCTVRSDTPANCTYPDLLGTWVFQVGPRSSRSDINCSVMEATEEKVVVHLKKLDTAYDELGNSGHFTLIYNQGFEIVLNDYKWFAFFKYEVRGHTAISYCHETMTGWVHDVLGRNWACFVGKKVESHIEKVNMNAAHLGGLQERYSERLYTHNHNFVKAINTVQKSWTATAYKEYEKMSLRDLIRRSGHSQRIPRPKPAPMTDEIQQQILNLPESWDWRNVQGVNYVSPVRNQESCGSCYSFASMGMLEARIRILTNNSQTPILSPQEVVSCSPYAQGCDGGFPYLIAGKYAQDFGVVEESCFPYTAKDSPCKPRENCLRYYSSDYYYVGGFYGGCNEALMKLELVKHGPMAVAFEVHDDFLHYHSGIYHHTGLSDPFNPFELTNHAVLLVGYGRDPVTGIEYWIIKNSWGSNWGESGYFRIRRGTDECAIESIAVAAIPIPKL
Chain of UniProt P16234 (whole entry, unmodified, looked up): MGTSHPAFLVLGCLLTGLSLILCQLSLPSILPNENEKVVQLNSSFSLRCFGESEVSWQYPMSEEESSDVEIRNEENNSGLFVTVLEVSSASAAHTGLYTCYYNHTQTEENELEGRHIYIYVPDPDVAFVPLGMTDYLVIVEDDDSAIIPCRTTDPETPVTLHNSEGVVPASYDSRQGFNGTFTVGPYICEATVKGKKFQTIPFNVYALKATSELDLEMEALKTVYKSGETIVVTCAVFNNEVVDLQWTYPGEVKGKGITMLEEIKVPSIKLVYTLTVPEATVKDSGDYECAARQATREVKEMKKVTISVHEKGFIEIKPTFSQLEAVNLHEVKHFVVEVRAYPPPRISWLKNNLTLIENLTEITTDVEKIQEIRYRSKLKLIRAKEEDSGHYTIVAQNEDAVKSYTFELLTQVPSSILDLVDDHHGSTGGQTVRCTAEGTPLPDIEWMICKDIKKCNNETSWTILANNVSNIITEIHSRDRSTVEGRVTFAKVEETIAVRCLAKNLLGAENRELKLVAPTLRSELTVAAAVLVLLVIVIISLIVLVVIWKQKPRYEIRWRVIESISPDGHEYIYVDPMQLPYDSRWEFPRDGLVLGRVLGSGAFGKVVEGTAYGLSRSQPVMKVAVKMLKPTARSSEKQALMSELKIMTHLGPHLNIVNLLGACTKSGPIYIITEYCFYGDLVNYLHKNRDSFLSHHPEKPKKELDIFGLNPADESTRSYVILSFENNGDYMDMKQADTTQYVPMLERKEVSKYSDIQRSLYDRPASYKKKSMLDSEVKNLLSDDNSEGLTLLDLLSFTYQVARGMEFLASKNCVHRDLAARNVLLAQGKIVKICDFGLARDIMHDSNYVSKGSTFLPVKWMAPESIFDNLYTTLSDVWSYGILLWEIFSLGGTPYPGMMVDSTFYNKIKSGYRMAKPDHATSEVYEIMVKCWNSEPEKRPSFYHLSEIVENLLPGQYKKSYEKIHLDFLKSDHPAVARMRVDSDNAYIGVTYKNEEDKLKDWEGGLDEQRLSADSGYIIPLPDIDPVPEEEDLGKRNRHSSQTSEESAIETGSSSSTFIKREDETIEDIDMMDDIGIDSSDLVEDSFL
Chain of UniProt P45983 (whole entry, looked up): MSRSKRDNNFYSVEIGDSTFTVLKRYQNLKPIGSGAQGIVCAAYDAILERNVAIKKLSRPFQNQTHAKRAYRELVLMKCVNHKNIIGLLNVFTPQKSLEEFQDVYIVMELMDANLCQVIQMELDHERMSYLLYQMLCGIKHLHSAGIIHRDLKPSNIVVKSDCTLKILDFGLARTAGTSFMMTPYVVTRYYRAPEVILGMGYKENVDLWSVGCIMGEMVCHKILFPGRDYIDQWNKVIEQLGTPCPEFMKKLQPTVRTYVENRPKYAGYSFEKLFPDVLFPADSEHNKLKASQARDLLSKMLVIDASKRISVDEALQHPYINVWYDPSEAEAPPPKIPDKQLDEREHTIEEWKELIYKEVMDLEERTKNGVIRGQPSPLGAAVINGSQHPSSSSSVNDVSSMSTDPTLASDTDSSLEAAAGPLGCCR

O=C(Nc1ccon1)C12CC3CC(C1)CC(n1cnc([N+](=O)[O-])n1)(C3)C2  inhibition (Trypanosoma cruzi; reporter translation, Renilla luciferase mRNA translation; cell-free extract; 40 µM; reference: DMSO): 4.5%
COC(=O)c1cc(C)cc(NS(=O)(=O)c2cc(Cl)cc(Cl)c2O)c1  remaining activity (malate dehydrogenase; enzyme activity, inhibitor; 40 µM, pH 7.0, 1% DMSO, aggregation counter-screen): 103%
O=C(O)c1ccc(Nc2ncc3c(n2)-c2ccc(Cl)cc2C(c2c(F)cccc2F)=NC3)cc1  remaining activity (human SAPK2a(T106M); kinase activity; 1 µM): 130%
CNc1ncc2c(/C=C/C(=O)N3CCC(OC)CC3)nn(Cc3cccc(C(F)(F)F)c3)c2n1  remaining activity (Serine/threonine-protein kinase ULK2 (ULK2, Homo sapiens, UniProt Q8IYT8); kinase activity, inhibitor; 1 µM; reference: untreated control): 101%
O=C(NC1CCC1)c1ccc2nc(-c3cccc(NS(=O)(=O)NCCN4CCCCC4)c3)cn2c1  remaining activity (PDGFRB; enzyme activity; 10 µM): 99%
CC(=O)n1cc([C@H]2C=C(C(=O)N3CCN(Cc4ccc5c(c4)OCO5)CC3)O[C@@H](OCc3ccc(CO)cc3)C2)c2ccccc21  inhibition (Trypanosoma cruzi; reporter translation, Renilla luciferase mRNA translation; cell-free extract; 40 µM; reference: DMSO): 47.5%
O=S(=O)(NC1(Cc2ccc(F)cc2)CC1)c1cccc(Cl)c1O  remaining activity (malate dehydrogenase; enzyme activity, inhibitor; 200 µM, pH 7.0, 1% DMSO, aggregation counter-screen): 108%
Cc1cc(Nc2cc(N3CCN(C)CC3)nc(Sc3ccc(NC(=O)C4CC4)cc3)n2)[nH]n1  remaining activity (Ephrin type-A receptor 1 (EPHA1, Homo sapiens, UniProt P21709); kinase activity, KinaseProfiler; 0.03 µM, species human; reference: control): 99%
COc1cc(N2CCN(C)CC2)ccc1Nc1nc(N)n(C(=S)NCc2c(Cl)cccc2Cl)n1  remaining activity (STK25; enzyme activity; 10 µM; reference: control): 21%
Cc1cc(NC(=O)c2cccc(NC(=O)/C=C/CN(C)C)c2)ccc1Nc1nccc(-c2cccnc2)n1  remaining activity (Mitogen-activated protein kinase 8 (MAPK8, Homo sapiens, UniProt P45983); enzyme activity, inhibitor; 2.79e-05 µM, 6 h, unit not given, added: GSH 10 mM pre-incubation; reference: vehicle): 1.01
O=S(=O)(Nc1c(CO)ccc(Cl)c1Cl)c1cccc(Cl)c1O  remaining activity (malate dehydrogenase; enzyme activity, inhibitor; 200 µM, pH 7.0, 1% DMSO, aggregation counter-screen): 81%
C1=C/COCc2cc(ccc2OCCN2CCCC2)Nc2nccc(n2)-c2cccc(c2)COC/1  remaining activity (Epidermal growth factor receptor (EGFR, Homo sapiens, UniProt P00533, G719S); concentration not given; reference: untreated control): 84%
O=C(Nc1ccc(NS(=O)(=O)c2cccc(Cl)c2O)cn1)C1CC1  remaining activity (malate dehydrogenase; enzyme activity, inhibitor; 200 µM, pH 7.0, 1% DMSO, aggregation counter-screen): 90%
COc1cc(-c2cncc3c2CN(C)Cc2cc(N4CCNCC4)ccc2-3)cc(OC)c1OC  remaining activity (Platelet-derived growth factor receptor alpha (PDGFRA, Homo sapiens, UniProt P16234, V561D); kinase activity; 1 µM, added: ATP 10 µM; reference: DMSO control): 76%
Cc1cccc(C)c1C(=O)OCC(=O)[C@H](CCCCN)NC(=O)[C@H](CCCNC(=N)N)NC(=O)OCc1ccccc1  remaining activity (Dipeptidyl peptidase 1 (Ctsc, Mus musculus, UniProt P97821); inhibitor; 10 µM, added: AMC fluorogenic substrate; reference: untreated): 100%
COc1cc(Nc2ncc3c(n2)-c2ccc(Cl)cc2C(c2c(F)cccc2OC)=NC3)ccc1C(=O)O  remaining activity (ABL2; kinase activity; 1 µM): 47%
C=CC(=O)N1CCC([C@@H]2CCNc3c(C(N)=O)c(-c4ccc(Oc5ccccc5)cc4)nn32)CC1  remaining activity (STK25; kinase activity, inhibitor, HotSpot radiometric; 100 nM, added: ATP 10 µM): 79.1 ± 0.8%
NC/C(=C\F)COc1cccc(Cn2c(=S)[nH]c(=O)c3[nH]cnc32)c1  remaining activity (Lactoperoxidase (LPO, Bos taurus, UniProt P80025); H2O2 electrode; 10 µM; reference: control): 23.5% and 38.9%
COc1cc(F)ccc1-c1ncnc(Nc2cccc(C[S@](C)(=N)=O)c2)n1  remaining activity (PDGFRB; kinase activity; 10 µM, added: 10 µM ATP): 41%
CCCOc1ccc(OC)c(F)c1C(=O)c1ccc(C(=O)N[C@@H]2CNC[C@H]2NC(=O)c2ccc3[nH]ncc3c2)cc1  remaining activity (Hepatocyte growth factor receptor (MET, Homo sapiens, UniProt P08581, Y1230H); enzyme activity; 10 µM): 42%
Cn1ncc(S(=O)(=O)NC2(c3cc(F)cc(Br)c3)CC2)c1C(=O)O  remaining activity (malate dehydrogenase; enzyme activity, inhibitor; 200 µM, pH 7.0, 1% DMSO, aggregation counter-screen): 103%
COc1ccc(F)cc1C(=O)NCc1ccc(-c2nn([C@@H](C)C(F)(F)F)c(N)c2C(N)=O)cc1  remaining activity (STK25; kinase activity, inhibitor, HotSpot radiometric; 1000 nM, added: ATP at Km): 88.8 ± 1.6%
O=[N+]([O-])c1ccc(N=Nc2c(O)ccc3ccccc23)c([N+](=O)[O-])c1  remaining activity (KDM4A; concentration not given): 73%
Cn1ncc(S(=O)(=O)NC2CCSc3ccc(Cl)cc32)c1C(=O)O (centres unmarked)  remaining activity (malate dehydrogenase; enzyme activity, inhibitor; 200 µM, pH 7.0, 1% DMSO, aggregation counter-screen): 105%
C=CC[C@@H]1c2ccc(OC)c(OC)c2CN2CCc3cc4c(cc3[C@H]12)OCO4  remaining activity (P2X purinoceptor 7 (P2rx7, Mus musculus, UniProt Q9Z1M0, A312V); ATP-evoked current, inhibitor, whole-cell patch clamp; 30 µM, A312V variant): 20.4%
Cc1c(C[S+](C)[O-])cccc1NS(=O)(=O)c1cccc(Cl)c1O (centres unmarked)  remaining activity (malate dehydrogenase; enzyme activity, inhibitor; 200 µM, pH 7.0, 1% DMSO, aggregation counter-screen): 84%
CCCCCC/C(C)=N/Nc1ccc([N+](=O)[O-])cc1[N+](=O)[O-]  remaining activity (KDM4A; concentration not given): 85%
C=CC(=O)N1CCC[C@@H](n2nc(-c3ccc(Oc4ccccc4)cc3)c3c(N)ncnc32)C1  remaining activity (Serine/threonine-protein kinase tousled-like 2 (TLK2, Homo sapiens, UniProt Q86UE8); 1 µM): 44.9%
N#CC(=Cc1cc(F)ccc1F)C(=O)Nc1cc(Cl)ccc1Cl  labelling (UCHL1; covalent, intact protein LC-MS; 12.5 µM): 17.2%
CC(=O)Nc1c(C)cc(NS(=O)(=O)c2cc(Cl)cc(Cl)c2O)cc1C  remaining activity (malate dehydrogenase; enzyme activity, inhibitor; 200 µM, pH 7.0, 1% DMSO, aggregation counter-screen): 80%
C[C@H]1[C@H](OC(=O)CCC(=O)O)O[C@@H]2O[C@@]3(C)CC[C@H]4[C@H](C)CC[C@@H]1[C@@]24OO3  remaining activity (Non-structural polyprotein pORF1, helicase domain (Hepatitis E virus genotype 1, UniProt P33424); ATPase activity, inhibitor, colorimetric; 156 µM; reference: untreated): 50.1%
Cc1ccc(C=C(C#N)C(=O)Nc2cccc3ccccc23)cc1  labelling (UCHL1; covalent, intact protein LC-MS; 12.5 µM): 14.8%
